Published values gathered from unrelated publications.
A part holds a random share of what one study measured.

Block 1 — method: protein-binding microarray; form: double-stranded DNA, one strand shown; medium: in vitro; concentration: 2200 nM top; setting: 60-bp whole probe; together with: salmon DNA 0.4 mg/ml; baseline: random background probes; direction: higher = stronger binding
Target: Interferon regulatory factor 7, full length, phosphomimetic (IRF7, Homo sapiens, UniProt Q92985, residues 1-503, S471D/S472D/S475D/S476D/S477D/S483D/S484D/S487D)
Construct (chain): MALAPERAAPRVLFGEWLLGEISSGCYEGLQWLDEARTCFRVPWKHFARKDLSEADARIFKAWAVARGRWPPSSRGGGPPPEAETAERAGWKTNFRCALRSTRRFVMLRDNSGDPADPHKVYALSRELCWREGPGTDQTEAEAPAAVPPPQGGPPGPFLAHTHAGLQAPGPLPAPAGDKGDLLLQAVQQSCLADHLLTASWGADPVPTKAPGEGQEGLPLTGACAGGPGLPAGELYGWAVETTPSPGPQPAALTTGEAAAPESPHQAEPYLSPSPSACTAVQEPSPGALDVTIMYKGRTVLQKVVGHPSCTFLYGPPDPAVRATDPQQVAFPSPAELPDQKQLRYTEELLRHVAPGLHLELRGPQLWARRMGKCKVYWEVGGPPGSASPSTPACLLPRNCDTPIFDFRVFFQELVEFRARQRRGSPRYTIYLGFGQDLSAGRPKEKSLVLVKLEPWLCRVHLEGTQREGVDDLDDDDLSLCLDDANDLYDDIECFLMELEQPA
Strand | fitted relative affinity [z-score]
GCCTAGCACTTAGATTCCAGTTTCGATTCGTGCTAGGTCTTGATTCGCTTGACGCTGCTG | 12.4
GCCTAGCACCGCAGGGCAGGCTTCGGCCGGTGCTAGGTCTTGATTCGCTTGACGCTGCTG | -1.89
GCCTAGCACTCTATCTGCAGACTCTCACAGTGCTAGGTCTTGATTCGCTTGACGCTGCTG | 1.19

Block 2 — method: aptamer microarray, sandwich; form: DNA with 2'F-ANA; medium: in vitro; concentration: 200 nM; together with: Cy3 exosite-II aptamer, 400 nM; direction: higher = stronger binding
Target: Prothrombin, mature alpha-thrombin (F2, Homo sapiens, UniProt P00734)
Setting: whole 15-mer aptamer, many near background
Strand | mean fluorescence intensity [a.u.]
GGTTGGTGTGGTTGG (2'F-ANA at 1 2 3 4 5 6 8 11 12 14) | 58.2
GGTTGGTGTGGTTGG (2'F-ANA at 2 3 4 6 8 9 11 12 13 14 15) | 212
GGTTGGTGTGGTTGG (2'F-ANA at 3 9 11 12 14) | 657

Block 3 — method: protein binding microarray; form: double-stranded DNA, one strand shown; medium: in vitro; concentration: not given; baseline: not given; direction: higher = stronger binding
Target: Histone acetyltransferase KAT6A, winged helix 2, GST fusion (KAT6A, Homo sapiens, UniProt Q92794, residues 85-181)
Setting: 8-mer, flanks averaged, mean of 2 arrays, mostly near background
Construct (chain): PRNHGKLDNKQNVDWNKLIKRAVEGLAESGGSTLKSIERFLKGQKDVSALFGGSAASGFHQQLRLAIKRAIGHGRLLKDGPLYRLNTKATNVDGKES
Strand | E-score
GGTCAGTA | -0.0493
CAAATCCC | -0.0313
AAGCAACA | 0.0602
CGAAAGTC | -0.17
CGCAGGCA | 0.177
ATACAAGG | 0.0138

Other studies, line by line
Substance | target | test | test system | conditions | how to read | endpoint | value
PhoQ, residues 284 288 289 292 302 303 AGCYAI | PhoP, residues 12 14 15 18 19 NFCKL (Escherichia coli, UniProt P23836) | Sort-seq, measured: YFP reporter | E. coli | PhoQ-PhoP variant library, together with: 10 µM Mg2+ | baseline: high Mg2+ state, higher = stronger signaling | fold induction | 2.81

For quick reference, copied from above (block 1):
Strand | fitted relative affinity [z-score]
GCCTAGCACTTAGATTCCAGTTTCGATTCGTGCTAGGTCTTGATTCGCTTGACGCTGCTG | 12.4
